Results gathered from unrelated publications.
Every numbered part comes from another study and shows a few of its results, in no order.

Sample 1
Target: Ras GTPase-activating protein-binding protein 1, RRM domain (G3BP1, Homo sapiens, UniProt Q13283)
Chain of UniProt Q13283 (whole entry, looked up): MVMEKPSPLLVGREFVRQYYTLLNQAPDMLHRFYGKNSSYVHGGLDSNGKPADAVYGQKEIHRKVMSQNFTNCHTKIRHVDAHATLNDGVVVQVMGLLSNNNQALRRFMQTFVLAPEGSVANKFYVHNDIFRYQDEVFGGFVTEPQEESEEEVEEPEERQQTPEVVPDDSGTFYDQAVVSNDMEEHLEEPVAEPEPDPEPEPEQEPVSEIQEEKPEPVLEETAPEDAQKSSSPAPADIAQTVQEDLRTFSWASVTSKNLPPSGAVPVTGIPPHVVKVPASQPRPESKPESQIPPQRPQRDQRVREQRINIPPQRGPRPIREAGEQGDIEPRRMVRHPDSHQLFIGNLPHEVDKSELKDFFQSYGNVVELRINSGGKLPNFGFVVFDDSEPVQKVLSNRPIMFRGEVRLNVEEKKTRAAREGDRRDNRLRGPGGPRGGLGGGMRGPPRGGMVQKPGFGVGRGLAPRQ
Technique: RNA Bind-n-Seq
Form: RNA
Matrix: in vitro
Tested at: 1 µM
Notes: whole 134-nt RNA, ends assumed
Added: 150 mM KCl
Reference: input library
Direction: higher = stronger binding
Constant ends, left off below: GGGAGUUCUACAGUCCGACGAUC … UGGAAUUCUCGGGUGUCAAGG
The log2 enrichment of `UGUGUUGUGCUCAUUACCAGUGCAGCGACUGCCGUCCCAGGGUGACUCUGAGUUGUCCUUUAUCGUGAGCUAGCAAUGGCUAGCGAAGAC` is reported as -0.277.
The log2 enrichment of `UAACUUUAGAGGAGGAUCUGAUGCAUAUGGCAGUGGACGUGGAUUUGGGGAUGGCUAUAAUGGGUAUGGAGGAGGACCUGGAGGUGGCAA` is reported as -0.889.
With `ACCAUGCAGGUGGGCAUCUUUGGGAAGUGGGGCAAGGGGGGGAUAGGGAGGGGGGUAACACUUUGAGAACAGGUGGUCCCAGGUCGUUUC` the log2 enrichment was 0.96.
For `UCCUGUGCUACACAUCGUAUGUACCGAAUCGGGGAAAAAGGGGAAAAAGGGAAAAAGGGGAAAGUAUUAUGUUACGCCGUUCGGAUCUGC`, the log2 enrichment was 0.161.
For `UUCAAAACAGAAUCCUUCCAGUCCUCUUCAGCGUUUAAUUCCAGGCUCAAACUUGGACAGUGAACCCAGAAUUCAAACAGAUAUACUAAA`, the log2 enrichment was -0.000203.
`UCAGUGUCUUACCCUGAAGAGAAAGUUGUAGGUUGGCUGUUGAAAUUCAUUCCUUAGAUAUGAUCAGUUUGAUUGCCCGGCUUUAUUGCC` has a log2 enrichment of -0.197.
The log2 enrichment of `GCAGGAAGUAAAAACAAAUGGAAAUGCUUCGGAUAGUGGCAGGGGUGGGAGUUGCUAAGGAAAGGGUGGGAUGGGAGUGGGUAAAGAGUU` is reported as 2.07.
`ACCAUGCAGGUGGGCAUCUUUGGGAAGUGGGGCAAGGGGGGGAUAGGGAGGGGGGUAACACUUUGGGAACACGUGGUCCCAGGUCGUUUC` gave a log2 enrichment of 0.953.
`AGUCCUGUGCUACACAUCGUAUGUACCGAAUCGGGGUUUGGGGUUUUUGGGGUGGGGAAAGUAUUAUGUUACGCCGUUCGGAUCUGCACU` has a log2 enrichment of 1.08.
`UGGCCCUGGUGGCAUGCGGGGAGGAAGAGGUGGCCUCUUGGAUCGUGGUGGUCCCGGUGGAAUGUUCAGAGGUGGCCGUGGUGGAGACAG` has a log2 enrichment of 0.914.

Sample 2
Target: Histone acetyltransferase KAT6A, winged helix 2, GST fusion (KAT6A, Homo sapiens, UniProt Q92794, residues 85-181)
Technique: protein binding microarray
Form: double-stranded DNA, one strand shown
Matrix: in vitro
Tested at: not given
Notes: 8-mer, flanks averaged, mean of 2 arrays, mostly near background
Reference: not given
Direction: higher = stronger binding
Residues (chain): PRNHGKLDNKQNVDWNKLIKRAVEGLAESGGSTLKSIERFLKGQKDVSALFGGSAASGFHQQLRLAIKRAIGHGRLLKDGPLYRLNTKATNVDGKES
With `AGTTGCGC` the E-score was -0.018.
With `TCCACGCA` the E-score was -0.0155.
`CGGGCCGA` gave an E-score of 0.0678.
For `AATTCTGC`, the E-score was 0.14.
For `CAGTCCTC`, the E-score was -0.164.
The E-score of `GAACAAGC` is reported as -0.0127.
The E-score of `CACGTTGA` is reported as -0.0827.
`TGCTCCAA` gave an E-score of 0.0786.
For `AGGTGTTG`, the E-score was -0.224.
With `ATTCCCCG` the E-score was -0.00724.
`GACGGATA` has an E-score of -0.0244.
For `CGTCCTTA`, the E-score was -0.119.
For `TTACGAAA`, the E-score was 0.011.
The E-score of `GACGGGAA` is reported as 0.0256.
`AGGCACTC` gave an E-score of -0.0423.
`ATCCGATA` has an E-score of -0.133.
The E-score of `CCAAGCCA` is reported as -0.0952.
With `AAATACCT` the E-score was -0.127.
With `ATGAATTA` the E-score was 0.0747.
With `CCATTTAG` the E-score was -0.12.
The E-score of `AGCTTTTG` is reported as 0.0338.
`TGTAATAA` gave an E-score of -0.0811.
`ATCCTAGA` gave an E-score of -0.136.
The E-score of `GTCAACAA` is reported as -0.1.
With `AGGGCTAG` the E-score was -0.113.

Sample 3
Target: Interferon regulatory factor 7, full length, phosphomimetic (IRF7, Homo sapiens, UniProt Q92985, residues 1-503, S471D/S472D/S475D/S476D/S477D/S483D/S484D/S487D)
Technique: protein-binding microarray
Form: double-stranded DNA, one strand shown
Matrix: in vitro
Tested at: 2200 nM top
Notes: 60-bp whole probe
Added: salmon DNA 0.4 mg/ml
Reference: random background probes
Direction: higher = stronger binding
Constant ends, left off below: GCCTAGCAC … GTCTTGATTCGCTTGACGCTGCTG
Residues (chain): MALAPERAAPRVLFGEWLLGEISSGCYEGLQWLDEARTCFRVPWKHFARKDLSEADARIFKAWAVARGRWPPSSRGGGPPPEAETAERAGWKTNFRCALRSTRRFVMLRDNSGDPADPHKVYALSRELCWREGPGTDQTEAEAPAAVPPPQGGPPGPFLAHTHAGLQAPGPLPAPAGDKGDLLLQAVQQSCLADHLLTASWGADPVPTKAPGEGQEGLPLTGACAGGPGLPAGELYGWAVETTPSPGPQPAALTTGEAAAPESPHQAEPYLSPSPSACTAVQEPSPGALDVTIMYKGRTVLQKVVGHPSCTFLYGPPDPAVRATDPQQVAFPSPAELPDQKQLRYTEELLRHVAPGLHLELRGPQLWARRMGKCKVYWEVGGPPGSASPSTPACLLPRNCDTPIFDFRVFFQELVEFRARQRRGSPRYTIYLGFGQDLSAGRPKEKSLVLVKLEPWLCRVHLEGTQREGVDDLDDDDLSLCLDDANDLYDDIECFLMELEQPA
`GACGATTTCAGTCACGAGACGTGCTAG`: “fitted relative affinity” 0.368 z-score.
`TTAGATTTCGGGAATCGATTAGTGCTA`: “fitted relative affinity” 0.561 z-score.
For `GACGGTATCGGTCGCGGGACGTGCTAG`, “fitted relative affinity” read -0.279 z-score.
`GACAGACTGCTTCTCCTGACGTGCTAG` — result for “fitted relative affinity”: 0.742 z-score.
`TTAGATCTCAGGATCGATTAGTGCTAG` — result for “fitted relative affinity”: -0.219 z-score.
For `TTAGAAATCAGTCTCGATTAGTGCTAG`, “fitted relative affinity” read -0.211 z-score.
`TTAGGTATCCGTCTCGGTTAGTGCTAG`: “fitted relative affinity” 0.429 z-score.
Under “fitted relative affinity”, `GACGGACTGGGGTTTCGGGGCGTGCTA` is recorded as 0.0198 z-score.
Under “fitted relative affinity”, `GACGCTCTCAGTATCGAGACGTGCTAG` is recorded as 0.291 z-score.
Under “fitted relative affinity”, `GAGGATTTCAGTTCCGAGACGTGCTAG` is recorded as 0.827 z-score.
`TTTTTTTTGTATTTTTGATAGTGCTAG` — result for “fitted relative affinity”: 1.72 z-score.
Under “fitted relative affinity”, `GACGGTTTCGTTTCCCTGACGTGCTAG` is recorded as 10.9 z-score.
`AAGGTATTATTTATTGTAGCGTGCTAG`: “fitted relative affinity” -0.121 z-score.
For `TTAGAACTGAGTATAGATTAGTGCTAG`, “fitted relative affinity” read -0.681 z-score.
`GACCGTTTCGGGTTTCGGGACGTGCTA`: “fitted relative affinity” 6.98 z-score.
`TTAGATTTCATTTCCGATTAGTGCTAG` — result for “fitted relative affinity”: 2.68 z-score.
For `TCAGTTTTGTTTTTCATACTGTGCTAG`, “fitted relative affinity” read 4.6 z-score.
`TTCGGTATCCTTCTCCTTTAGTGCTAG`: “fitted relative affinity” 2.38 z-score.

Sample 4
Target: Prothrombin, mature alpha-thrombin (F2, Homo sapiens, UniProt P00734)
Technique: aptamer microarray, sandwich
Form: DNA with 2'F-ANA
Matrix: in vitro
Tested at: 200 nM
Notes: whole 15-mer aptamer, many near background
Added: Cy3 exosite-II aptamer, 400 nM
Direction: higher = stronger binding
Sequence: GGTTGGTGTGGTTGG
For `2'F-ANA at 5 6 7 8 12 13`, “mean fluorescence intensity” read 133 a.u.
For `2'F-ANA at 2 4 6 7 8 11 12 13 15`, “mean fluorescence intensity” read 297 a.u.
For `2'F-ANA at 2 5 6 9 12 14`, “mean fluorescence intensity” read 47.5 a.u.
`2'F-ANA at 2 4 5 6 7 8 9 12 13 15` — result for “mean fluorescence intensity”: 126 a.u.
`2'F-ANA at 3 5 6 7 8 9 15` — result for “mean fluorescence intensity”: 153 a.u.
Under “mean fluorescence intensity”, `2'F-ANA at 2 5 8 9` is recorded as 91.3 a.u.
`2'F-ANA at 1 2 3 4 5 7 8 9 11 13 15` — result for “mean fluorescence intensity”: 54.1 a.u.
Under “mean fluorescence intensity”, `2'F-ANA at 1 3 4 7 14` is recorded as 78.9 a.u.
`2'F-ANA at 2 3 4 5 8 9 11 13 14 15` — result for “mean fluorescence intensity”: 52.6 a.u.
For `2'F-ANA at 1 2 4 6 8 10 13 14`, “mean fluorescence intensity” read 41.9 a.u.
`2'F-ANA at 1 5 6 9 11 13`: “mean fluorescence intensity” 50.1 a.u.
`2'F-ANA at 1 2 4 5 6 7 9 11 12 13 14 15`: “mean fluorescence intensity” 51.5 a.u.
For `2'F-ANA at 2 4 5 7 8 10 11 15`, “mean fluorescence intensity” read 53.7 a.u.
`2'F-ANA at 2 4 7 9 11 12 14 15` — result for “mean fluorescence intensity”: 113 a.u.
`2'F-ANA at 1 2 3 5 9 11 13 15`: “mean fluorescence intensity” 51.5 a.u.
Under “mean fluorescence intensity”, `2'F-ANA at 1 5 6 8 10 11 15` is recorded as 52.5 a.u.
`2'F-ANA at 1 2 3 4 5 6 9 10 11`: “mean fluorescence intensity” 67.2 a.u.
`2'F-ANA at 1 5 6 7 8 11 13`: “mean fluorescence intensity” 54 a.u.
`2'F-ANA at 2 4 5 6 7 8 12 13`: “mean fluorescence intensity” 146 a.u.
For `2'F-ANA at 1 2 5 6 7 8 13 14 15`, “mean fluorescence intensity” read 52.2 a.u.
For `2'F-ANA at 1 3 5 7 9 10 13`, “mean fluorescence intensity” read 47.1 a.u.
Under “mean fluorescence intensity”, `2'F-ANA at 1 3 6 8 9 10 12 14 15` is recorded as 66.5 a.u.
`2'F-ANA at 2 5 8 13 14`: “mean fluorescence intensity” 94.4 a.u.
For `2'F-ANA at 1 2 5 6 11 12`, “mean fluorescence intensity” read 85.8 a.u.
For `2'F-ANA at 1 9 13 14 15`, “mean fluorescence intensity” read 61.5 a.u.
